Measurements from different studies.
Compare with care: the assays were run in different laboratories. Values joined by “and” are separate records of one study, mostly repeats; a detail may differ. ± marks the error that the study gave.
Nicotinic acetylcholine receptor alpha1/beta1/epsilon/delta: Nicotinic acetylcholine receptor alpha1/beta1/epsilon/delta (Mus musculus, UniProt P02716+P04756+P09690+P20782)
Sequence of UniProt P09690 (whole entry, looked up): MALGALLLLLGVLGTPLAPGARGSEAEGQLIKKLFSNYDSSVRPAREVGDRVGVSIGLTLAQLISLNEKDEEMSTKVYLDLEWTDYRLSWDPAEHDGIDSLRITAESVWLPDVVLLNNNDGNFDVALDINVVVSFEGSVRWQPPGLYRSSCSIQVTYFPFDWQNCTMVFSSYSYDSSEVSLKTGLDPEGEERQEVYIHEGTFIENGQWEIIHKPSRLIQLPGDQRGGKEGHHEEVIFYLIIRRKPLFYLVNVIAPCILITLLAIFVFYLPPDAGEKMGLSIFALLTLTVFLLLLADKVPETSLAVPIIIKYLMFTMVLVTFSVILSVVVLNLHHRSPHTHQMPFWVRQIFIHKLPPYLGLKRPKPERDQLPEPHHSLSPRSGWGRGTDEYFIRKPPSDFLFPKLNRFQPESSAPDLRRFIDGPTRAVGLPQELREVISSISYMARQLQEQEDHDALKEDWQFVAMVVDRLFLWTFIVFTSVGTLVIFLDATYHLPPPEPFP
Sequence of UniProt P02716 (whole entry, looked up): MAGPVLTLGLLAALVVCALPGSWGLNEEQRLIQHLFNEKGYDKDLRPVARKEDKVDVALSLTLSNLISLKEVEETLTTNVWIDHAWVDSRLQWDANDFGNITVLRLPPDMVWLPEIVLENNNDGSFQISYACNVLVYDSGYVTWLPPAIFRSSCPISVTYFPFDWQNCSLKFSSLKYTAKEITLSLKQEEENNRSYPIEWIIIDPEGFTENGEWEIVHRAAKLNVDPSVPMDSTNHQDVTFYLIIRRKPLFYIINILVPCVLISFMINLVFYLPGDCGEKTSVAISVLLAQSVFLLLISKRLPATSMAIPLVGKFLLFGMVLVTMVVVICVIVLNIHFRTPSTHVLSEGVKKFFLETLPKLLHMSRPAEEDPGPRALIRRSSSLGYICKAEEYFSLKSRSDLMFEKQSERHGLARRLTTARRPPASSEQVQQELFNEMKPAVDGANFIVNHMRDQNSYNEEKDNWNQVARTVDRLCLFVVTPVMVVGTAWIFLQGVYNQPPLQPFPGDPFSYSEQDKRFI
Sequence of UniProt P04756 (whole entry, looked up): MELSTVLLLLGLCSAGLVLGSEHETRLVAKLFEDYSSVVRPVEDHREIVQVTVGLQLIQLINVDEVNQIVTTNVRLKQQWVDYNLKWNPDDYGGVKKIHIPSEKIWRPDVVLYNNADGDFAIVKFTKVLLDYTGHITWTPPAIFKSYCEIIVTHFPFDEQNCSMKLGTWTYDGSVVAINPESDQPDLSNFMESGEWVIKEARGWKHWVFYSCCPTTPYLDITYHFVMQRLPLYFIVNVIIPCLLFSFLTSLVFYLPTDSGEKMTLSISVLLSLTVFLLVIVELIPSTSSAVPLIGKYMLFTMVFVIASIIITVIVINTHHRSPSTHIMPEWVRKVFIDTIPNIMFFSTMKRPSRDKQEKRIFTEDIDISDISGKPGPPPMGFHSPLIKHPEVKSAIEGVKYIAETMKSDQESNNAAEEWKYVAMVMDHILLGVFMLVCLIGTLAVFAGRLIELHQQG
Sequence of UniProt P20782 (whole entry, looked up): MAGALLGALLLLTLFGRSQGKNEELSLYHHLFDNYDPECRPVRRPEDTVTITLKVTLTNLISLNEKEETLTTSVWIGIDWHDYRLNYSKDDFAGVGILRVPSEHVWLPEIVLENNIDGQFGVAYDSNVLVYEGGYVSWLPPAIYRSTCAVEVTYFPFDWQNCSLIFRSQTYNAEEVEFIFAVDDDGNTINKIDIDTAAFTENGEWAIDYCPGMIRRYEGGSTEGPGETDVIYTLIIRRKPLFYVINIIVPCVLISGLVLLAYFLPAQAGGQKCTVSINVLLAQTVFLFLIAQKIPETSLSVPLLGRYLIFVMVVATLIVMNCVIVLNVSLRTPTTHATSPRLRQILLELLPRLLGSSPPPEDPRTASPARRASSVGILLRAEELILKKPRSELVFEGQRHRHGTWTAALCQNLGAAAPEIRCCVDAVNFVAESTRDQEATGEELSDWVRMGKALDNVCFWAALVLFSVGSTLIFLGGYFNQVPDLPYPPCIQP
UCHL1: Ubiquitin carboxyl-terminal hydrolase isozyme L1 (UCHL1, Homo sapiens, UniProt P09936)
Sequence of UniProt Q62351 (whole entry, looked up): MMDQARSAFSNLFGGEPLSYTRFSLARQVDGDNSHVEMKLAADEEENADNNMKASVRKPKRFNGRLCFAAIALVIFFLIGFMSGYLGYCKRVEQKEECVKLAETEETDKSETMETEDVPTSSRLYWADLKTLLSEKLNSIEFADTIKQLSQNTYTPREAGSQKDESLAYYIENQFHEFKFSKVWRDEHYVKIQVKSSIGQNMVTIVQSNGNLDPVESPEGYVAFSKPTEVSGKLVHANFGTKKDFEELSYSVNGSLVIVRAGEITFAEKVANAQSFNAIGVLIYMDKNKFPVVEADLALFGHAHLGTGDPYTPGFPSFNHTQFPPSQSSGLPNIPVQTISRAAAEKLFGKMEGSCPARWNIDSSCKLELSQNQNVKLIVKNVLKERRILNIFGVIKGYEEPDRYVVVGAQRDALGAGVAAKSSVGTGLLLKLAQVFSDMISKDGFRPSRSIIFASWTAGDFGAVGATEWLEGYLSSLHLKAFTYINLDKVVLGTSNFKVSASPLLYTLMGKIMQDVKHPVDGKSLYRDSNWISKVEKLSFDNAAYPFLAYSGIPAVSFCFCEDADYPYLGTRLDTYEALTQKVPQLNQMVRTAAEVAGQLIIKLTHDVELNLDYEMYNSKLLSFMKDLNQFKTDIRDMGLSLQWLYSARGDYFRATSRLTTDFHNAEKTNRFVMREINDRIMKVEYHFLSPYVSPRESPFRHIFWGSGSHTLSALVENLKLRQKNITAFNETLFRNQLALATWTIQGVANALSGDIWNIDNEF
Sequence of UniProt P09936 (whole entry, looked up): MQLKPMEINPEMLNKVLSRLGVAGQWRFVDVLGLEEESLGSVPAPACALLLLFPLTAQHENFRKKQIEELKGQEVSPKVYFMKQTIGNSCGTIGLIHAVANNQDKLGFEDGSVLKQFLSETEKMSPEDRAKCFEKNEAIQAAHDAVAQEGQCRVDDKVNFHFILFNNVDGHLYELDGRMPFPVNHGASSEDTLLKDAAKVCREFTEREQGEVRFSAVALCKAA
Sequence of UniProt P21553 (whole entry, unmodified, looked up): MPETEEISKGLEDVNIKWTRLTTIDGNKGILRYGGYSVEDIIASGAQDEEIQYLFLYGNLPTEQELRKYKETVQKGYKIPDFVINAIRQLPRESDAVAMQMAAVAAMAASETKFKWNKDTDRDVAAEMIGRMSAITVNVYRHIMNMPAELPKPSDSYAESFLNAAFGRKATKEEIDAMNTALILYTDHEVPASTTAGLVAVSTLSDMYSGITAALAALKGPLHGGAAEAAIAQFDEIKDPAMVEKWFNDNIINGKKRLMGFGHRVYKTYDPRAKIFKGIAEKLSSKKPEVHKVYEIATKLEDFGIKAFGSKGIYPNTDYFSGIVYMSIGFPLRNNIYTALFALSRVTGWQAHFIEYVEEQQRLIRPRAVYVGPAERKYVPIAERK
Sequence of UniProt P00942 (whole entry, unmodified, looked up): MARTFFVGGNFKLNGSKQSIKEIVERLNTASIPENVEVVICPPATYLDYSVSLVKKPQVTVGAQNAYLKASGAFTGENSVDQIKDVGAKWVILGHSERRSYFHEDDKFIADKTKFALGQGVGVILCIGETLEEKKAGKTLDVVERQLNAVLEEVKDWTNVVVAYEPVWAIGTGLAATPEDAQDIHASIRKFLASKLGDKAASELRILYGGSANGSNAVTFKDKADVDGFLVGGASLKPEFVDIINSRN
Sequence of UniProt P28074 (whole entry, looked up): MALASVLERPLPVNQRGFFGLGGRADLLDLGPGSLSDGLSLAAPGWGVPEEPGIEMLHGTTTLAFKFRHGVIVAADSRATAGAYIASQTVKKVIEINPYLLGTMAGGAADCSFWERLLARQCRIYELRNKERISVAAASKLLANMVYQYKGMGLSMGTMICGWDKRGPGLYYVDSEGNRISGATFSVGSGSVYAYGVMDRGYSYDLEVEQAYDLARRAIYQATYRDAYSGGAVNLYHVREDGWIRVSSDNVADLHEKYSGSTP
Sequence of UniProt Q16832 (whole entry, looked up): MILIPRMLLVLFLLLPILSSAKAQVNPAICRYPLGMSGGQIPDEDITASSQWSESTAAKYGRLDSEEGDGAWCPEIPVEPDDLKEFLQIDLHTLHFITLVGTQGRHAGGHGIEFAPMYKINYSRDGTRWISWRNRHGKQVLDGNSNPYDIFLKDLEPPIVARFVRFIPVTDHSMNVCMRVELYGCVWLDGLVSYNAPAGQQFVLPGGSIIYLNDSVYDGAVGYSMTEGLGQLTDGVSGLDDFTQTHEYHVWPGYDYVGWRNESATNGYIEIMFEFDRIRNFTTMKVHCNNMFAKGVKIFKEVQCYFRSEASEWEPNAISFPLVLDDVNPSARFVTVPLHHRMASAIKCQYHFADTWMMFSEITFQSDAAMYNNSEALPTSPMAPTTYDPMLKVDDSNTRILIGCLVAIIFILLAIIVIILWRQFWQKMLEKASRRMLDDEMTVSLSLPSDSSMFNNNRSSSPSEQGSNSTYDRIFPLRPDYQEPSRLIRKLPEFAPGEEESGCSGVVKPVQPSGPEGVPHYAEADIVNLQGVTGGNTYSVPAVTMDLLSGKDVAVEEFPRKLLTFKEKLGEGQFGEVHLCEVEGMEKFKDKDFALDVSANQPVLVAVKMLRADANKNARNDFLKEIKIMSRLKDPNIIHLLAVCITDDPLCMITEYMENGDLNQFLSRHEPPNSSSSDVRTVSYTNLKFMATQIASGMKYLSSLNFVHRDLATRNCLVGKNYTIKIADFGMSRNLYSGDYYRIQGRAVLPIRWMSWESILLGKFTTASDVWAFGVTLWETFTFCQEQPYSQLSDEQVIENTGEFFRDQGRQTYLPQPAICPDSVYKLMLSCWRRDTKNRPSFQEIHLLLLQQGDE
Sequence of UniProt O75884 (whole entry, looked up): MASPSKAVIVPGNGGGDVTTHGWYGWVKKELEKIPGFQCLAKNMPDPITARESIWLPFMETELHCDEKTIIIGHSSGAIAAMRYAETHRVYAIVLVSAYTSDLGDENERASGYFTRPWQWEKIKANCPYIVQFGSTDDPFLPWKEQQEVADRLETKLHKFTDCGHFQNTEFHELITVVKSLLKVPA

`C[N+]1(C)CCN(c2ccc(Cl)cc2)CC1.[I-]` has an ACh response of 0.664 ± 0.204 (Nicotinic acetylcholine receptor alpha1/beta1/epsilon/delta; ion current, inhibitor, two-electrode voltage clamp; Xenopus oocytes; 30 µM, after co-application, unit not given, with: ACh 30 µM; relative to: ACh alone).
With `CCCC[C@H](NC(=O)[C@H](CC(C)C)NC(=O)CNC(=O)[C@@H](NC(=O)[C@H](Cc1ccccc1)NC(=O)[C@H](CO)NC(=O)[C@@H](N)CC(=O)O)C(C)C)C(N)=O` the Hill coefficient was 0.7 (Substance-K receptor (TACR2, Homo sapiens, UniProt P21452); radioligand binding, agonist; reference compound).
`C[C@H](N)C(=O)N[C@@H](CCCNC(=N)N)C(=O)N[C@H](C(=O)N[C@@H](CCCCC(C)(C)C)C(=O)N[C@@H](CCC(N)=O)C(=O)N[C@H](C(=O)N[C@@H](C)C(N)=O)[C@@H](C)O)[C@@H](C)O`: “preference over Kme3 peptide” 1.3 fold (SGF29, TTD (Homo sapiens, UniProt Q96ES7); binding, ITC; relative to: Kme3 peptide KD over compound KD).
`O=C1NC(=O)c2c1c1c3ccccc3n3c1c1c2c2ccccc2n1[C@H]1CC[C@@H]3O1` gave a remaining activity of 101 ± 11% (Transient receptor potential cation channel subfamily M member 8 (TRPM8, Homo sapiens, UniProt Q7Z2W7); antagonist; HEK293; 5 µM; relative to: control).
`Nc1ncc(-c2nc(N3CCOCC3)nc(N3CCOCC3)n2)c(C(F)F)n1` has a remaining binding of 61% (Mitogen-activated protein kinase kinase kinase 15 (MAP3K15, Homo sapiens, UniProt Q6ZN16); KINOMEscan; 10 µM).
For `O=c1oc(-c2ccccc2)ns1`, the kobs/[I] was 31.3 M⁻¹ s⁻¹ (Proteasome Macropain subunit MB1 (PSMB5, Homo sapiens, UniProt P28074); enzyme inactivation, inhibitor; human PA28-activated proteasome).
`COc1cc(N)c(Cl)cc1C(=O)NC1CN2CCC1CC2` (stereo not drawn): “log2 fold change” -0.135 (12-(S)-hydroxy-5,8,10,14-eicosatetraenoic acid receptor (GPR31, Homo sapiens, UniProt O00270); β-arrestin recruitment, TANGO luminescence, item: GPR31; concentration not given; relative to: basal luminescence).
`CC1(C)C(C=C(Cl)Cl)C1C(=O)OCc1cccc(Oc2ccccc2)c1` (stereo not drawn) gave a remaining activity of 98.5% (uncharacterized protein (Anopheles coluzzii, UniProt A0A6E8VQK1); enzyme activity, inhibitor; Sf9 cell homogenate; 29.59 µM, 0.1667 h, with: α-naphthyl acetate substrate; relative to: no inhibitor).
`O=C(O)Cc1c[nH]cn1` — result for “normalised MST signal”: 0.0517 (Sodium- and chloride-dependent taurine transporter (SLC6A6, Homo sapiens, UniProt P31641, Y138A); binding, microscale thermophoresis; 1.95 µM, room temperature, with: 50 nM labelled protein; higher = more binding).
With `COc1cc(/C=C/c2ccc(O)cc2)cc(OC)c1` the ∆H was -11.6 ± 0.167 kcal/mol (O-methyltransferase (Sorghum bicolor, UniProt A0A1B6PFV1, W279A); isothermal titration calorimetry; apo protein).
`N#C[C@@H]1CC(F)(F)CN1C(=O)CNC(=O)c1ccnc2ccc(OCCCN3CCN(C(=O)CN4CCN(CC(=O)[O-])CCN(CC(=O)[O-])CC4)CC3)cc12.[18F-].[Al+3]`: “SUVmax myocardium/liver ratio” 1.91 ± 0.34 (Fibroblast activation protein alpha (Rattus norvegicus, UniProt A0A9K3Y732); PET; rat standard diet control; seventh week; relative to: myocardium over liver).
For `O=C(O)COP(=O)(O)O`, the Ki ratio was 15 (TPI1 (Saccharomyces cerevisiae, UniProt P00942, Y208F); enzyme activity, competitive inhibitor, GPDH/NADH-coupled; pH 8.9, 25 °C, ionic strength 0.1 NaCl, with: glyceraldehyde 3-phosphate substrate; relative to: mutant over wild type).
The reaction velocity of `O=c1c2ccccc2oc2cc(OCCCCc3ccccc3)ccc12` is reported as 0.0016 a.u. (Acetylcholinesterase (ache, Electrophorus electricus, UniProt O42275); enzyme activity; 0.73 µM, with: substrate 1.73 mM; higher = faster reaction).
`COc1cc2nccc(Oc3ccc(NC(=O)c4cc5c(n(-c6ccccc6)c4=O)CCCC5=O)nc3)c2cc1OC` gave a selectivity ratio of > 100 (Tyrosine-protein kinase Fyn (FYN, Homo sapiens, UniProt P06241); cell viability, CellTiter-Glo; Ba/F3 expressing recombinant kinase; relative to: FYN IC50 over AXL IC50).
`O=C(Nc1cccnn1)N1CCC(=Cc2cccc(Oc3ccc(C(F)(F)F)cn3)c2)CC1` gave an inhibition of 8% (kainate receptor, rat; binding; 50 µM, with: [3H]kainic acid).
The inhibition of `CCCc1ccc(OCC(=O)N(Cc2nc(-c3cccnc3)no2)C(C)C)cc1` is reported as 21.3 ± 5% (Ribosomal processing cysteine protease Prp (prp, Staphylococcus aureus, UniProt Q2FXS9, N63Q); enzyme activity; 10 µM, 21.4 nM enzyme dimer, with: 0.5 µM FITC-labelled peptide substrate).
The labelling of `O=C(CCl)C1CC12CCCCC2` (stereo not drawn) is reported as 12.2% (UCHL1; covalent, intact protein LC-MS; 12.5 µM).
`CN(C(=O)n1cnc(-c2ccc[n+]([O-])c2)c1)C1CCCCC1` has a fold change of -3.5 (Carboxylesterase 1C (Ces1c, Rattus norvegicus, UniProt P10959); enzyme activity, ABPP; rat, brain; oral, 30 mg/kg/day, 7 days; relative to: vehicle).
The activation of `CN1CCN(c2cc(-c3ccncc3)c(-c3ccc4ccccc4c3)nn2)CC1` is reported as 1% (Chemerin-like receptor 1 (CMKLR1, Homo sapiens, UniProt Q99788); agonist, FLIPR calcium; 12.5 µM).
The TΔS of `CC12CCC(CC1)C(C)(C)O2` is reported as 7.89 ± 1.21 kcal/mol (1,8-cineole 2-endo-monooxygenase (cinA, Citrobacter braakii, UniProt Q8VQF6, N242A); ITC; 25 °C, N242A protein).
`CC(C)(COP(=O)(O)OP(=O)(O)OCC1OC(n2cnc3c(N)ncnc32)C(O)C1OP(=O)(O)O)C(O)C(=O)NCCC(=O)NCCSC(=O)CC(O)(CC(=O)O)C(=O)O` (stereo not drawn): “hydrolysis rate constant” 0.004 s⁻¹ (gltA (Thermoplasma acidophilum, UniProt P21553, D318G); citryl-CoA hydrolysis, substrate; saturating, pH 8, 20 °C).
`Clc1ccc(COc2cccc(CNCc3cccnc3)c2)cc1` — result for “highest concentration without inhibition”: > 200 µM (Aminoglycoside N(3)-acetyltransferase IV (aacC4, Salmonella sp, UniProt P08988); neomycin acetylation, inhibitor; with: neomycin).
`CN(C(=O)n1cnc(-c2ccc[n+]([O-])c2)c1)C1CCCCC1` gave an inhibition of -8% (Calcitonin gene-related peptide type 1 receptor (CALCRL, Homo sapiens, UniProt Q16602); radioligand binding; 50 µM).
The residence time of `COc1ccc(F)cc1C(=O)NCc1ccc(-c2nn([C@@H](C)C(F)(F)F)c(N)c2C(N)=O)cc1` is reported as 96 min (Tyrosine-protein kinase BTK (BTK, Homo sapiens, UniProt Q06187); binding).
For `CC[C@@H](C)[C@@H](NC(=O)[C@@H](Cc1ccc(O)cc1)NC(=O)[C@H]1CCCN1C(=O)[C@@H](CCCNC(=N)N)NC(=O)[C@H](N)Cc1c[nH]cn1)C(=O)N[C@H](C)C(=O)N[C@H](Cc1c[nH]cn1)C(=O)N[C@H](CCCNC(=N)N)C(=O)N[C@H](CCCCNC(=O)c1cccc(S(=O)(=O)F)c1)C(=O)N[C@H](Cc1ccc(O)cc1)C(=O)N[C@H](CO)C(=O)N[C@H](Cc1ccccc1)C(N)=O`, “surface TFRC expression” read 0.993 and 1.02 (Transferrin receptor protein 1 (Tfrc, Mus musculus, UniProt Q62351); flow cytometry; RAW264.7; 6 h, pH 6, unit not given; relative to: 0 h).
Under “probe labelling ratio”, `O=C(c1ccc(Cl)cc1)N1CCN2C(=O)N(OC(=O)N3CCOc4ccccc43)C(=O)C2C1` (stereo not drawn) is recorded as 1.48 (Serine hydrolase RBBP9 (Homo sapiens, UniProt O75884); MS-based ABPP; SW-620 conditioned medium; 10 µM, 1 h, 37 °C, median protein ratio; relative to: compound over DMSO).
`CCCCCCC(=O)O`: “melting temperature change” -2.5 °C (Albumin (ALB, Homo sapiens, UniProt P02768); differential scanning calorimetry; concentration not given, second transition, HSA 15 µM; relative to: HSA alone).
The Bmax of `[3H]C1(O)C=C(C(=O)O)CC1` (stereo not drawn) is reported as 43 pmol/mg protein (Calcium/calmodulin-dependent protein kinase type II subunit alpha (Rattus norvegicus, UniProt P11275); radioligand, saturation binding; rat cortical homogenate).
The inhibition of `O=C(Nc1cnccc1Cl)N1CCN(Cc2ccc3c(c2)OC(F)(F)O3)CC1` is reported as 36% (Sigma non-opioid intracellular receptor 1 (SIGMAR1, Homo sapiens, UniProt Q99720); radioligand binding, inhibitor; 10 µM, human, with: [3H]haloperidol).
`CC[C@H](C)[C@H](NC(C)=O)C(=O)N[C@@H](CCC(=O)O)C(=O)N[C@H](C(=O)N[C@H](C=O)CC(=O)O)[C@@H](C)O` has a Hill slope of -1.01 (Caspase-4 (Casp4, Mus musculus, UniProt P70343)).
For `O=C(O)c1coc(C(=O)CCl)c1`, the labelling was 19% (UCHL1; covalent, intact protein LC-MS; 12.5 µM).
`COc1ccc(N2C(=O)N(c3c(C)cccc3Cl)Cc3cnc(Nc4ccc(C5CCN(C)CC5)cc4OC)nc32)nc1` gave an inhibition of 95% (Discoidin domain-containing receptor 2 (DDR2, Homo sapiens, UniProt Q16832); kinase activity; 0.5 µM).
`CC[N+]1(C)CCN(c2ccc(Cl)cc2)CC1.[I-]` has an ACh response of 0.507 ± 0.345 (Nicotinic acetylcholine receptor alpha1/beta1/epsilon/delta; ion current, inhibitor, two-electrode voltage clamp; Xenopus oocytes; 30 µM, after co-application, unit not given, with: ACh 30 µM; relative to: ACh alone).
`Oc1c(Cl)cc(-c2ccccc2)c(F)c1Cl` has a Vmax of 33.2 ± 1.7 nmol/min/mg (Sulfotransferase 2A1 (SULT2A1, Homo sapiens, UniProt Q06520); substrate; pH 7.0, 37 °C, with: PAPS 200 µM).
`C[C@H]1CN(c2n[nH]c3nc(N[C@H]4CC[C@H](NS(=O)(=O)CCC(F)(F)F)CC4)ncc23)CCO1` gave a relative abundance of 1.1 (Serine/threonine-protein kinase Nek1 (NEK1, Homo sapiens, UniProt Q96PY6); inhibitor, Kinobeads competition profiling; 20 µM; relative to: vehicle).
For `[2H]c1c([2H])c([C@]2([2H])CCCN2C(=O)C(C)(C)Oc2ccc3cn[nH]c3c2)c([2H])c([2H])c1C([2H])([2H])[2H]`, the remaining binding was 100% (Transient receptor potential cation channel subfamily M member 6 (TRPM6, Homo sapiens, UniProt Q9BX84); KINOMEscan; 1 µM; relative to: DMSO control).
